Published values gathered from unrelated publications.
Each numbered part is a random draw from the data of one study; scales do not carry over between parts. “And” joins repeats or separate records; there may be more than shown.
Chain of UniProt O60285 (whole entry, looked up): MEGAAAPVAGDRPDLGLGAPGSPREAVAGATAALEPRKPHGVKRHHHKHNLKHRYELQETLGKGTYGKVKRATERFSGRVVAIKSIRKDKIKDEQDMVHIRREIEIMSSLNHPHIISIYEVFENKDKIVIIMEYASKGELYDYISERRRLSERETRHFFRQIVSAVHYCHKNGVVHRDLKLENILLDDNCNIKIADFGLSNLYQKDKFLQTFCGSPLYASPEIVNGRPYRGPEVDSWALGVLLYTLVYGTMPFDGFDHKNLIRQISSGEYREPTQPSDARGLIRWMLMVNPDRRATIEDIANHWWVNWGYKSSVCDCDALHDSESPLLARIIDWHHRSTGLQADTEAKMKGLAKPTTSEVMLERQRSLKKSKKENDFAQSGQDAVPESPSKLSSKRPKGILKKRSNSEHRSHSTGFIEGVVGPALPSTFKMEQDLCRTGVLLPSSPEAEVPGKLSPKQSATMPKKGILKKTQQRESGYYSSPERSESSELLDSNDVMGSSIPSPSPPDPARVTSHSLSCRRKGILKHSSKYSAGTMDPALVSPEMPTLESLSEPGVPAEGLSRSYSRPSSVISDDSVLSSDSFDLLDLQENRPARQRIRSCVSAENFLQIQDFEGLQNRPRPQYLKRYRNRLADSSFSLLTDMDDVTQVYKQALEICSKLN
Chain of UniProt Q9Y243 (whole entry, looked up): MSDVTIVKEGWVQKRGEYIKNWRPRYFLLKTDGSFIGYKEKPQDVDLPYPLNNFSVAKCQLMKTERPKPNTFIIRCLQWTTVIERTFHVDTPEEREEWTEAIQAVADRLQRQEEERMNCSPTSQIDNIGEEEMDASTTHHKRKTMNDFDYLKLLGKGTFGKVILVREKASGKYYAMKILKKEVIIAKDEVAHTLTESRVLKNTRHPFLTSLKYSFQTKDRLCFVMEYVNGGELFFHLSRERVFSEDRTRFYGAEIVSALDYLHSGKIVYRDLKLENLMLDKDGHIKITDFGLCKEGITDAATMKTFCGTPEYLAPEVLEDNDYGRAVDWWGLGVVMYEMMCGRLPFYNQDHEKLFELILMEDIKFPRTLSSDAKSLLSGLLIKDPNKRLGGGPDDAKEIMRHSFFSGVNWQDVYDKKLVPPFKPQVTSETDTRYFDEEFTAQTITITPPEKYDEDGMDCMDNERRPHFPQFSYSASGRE
Chain of UniProt Q15746 (whole entry, looked up): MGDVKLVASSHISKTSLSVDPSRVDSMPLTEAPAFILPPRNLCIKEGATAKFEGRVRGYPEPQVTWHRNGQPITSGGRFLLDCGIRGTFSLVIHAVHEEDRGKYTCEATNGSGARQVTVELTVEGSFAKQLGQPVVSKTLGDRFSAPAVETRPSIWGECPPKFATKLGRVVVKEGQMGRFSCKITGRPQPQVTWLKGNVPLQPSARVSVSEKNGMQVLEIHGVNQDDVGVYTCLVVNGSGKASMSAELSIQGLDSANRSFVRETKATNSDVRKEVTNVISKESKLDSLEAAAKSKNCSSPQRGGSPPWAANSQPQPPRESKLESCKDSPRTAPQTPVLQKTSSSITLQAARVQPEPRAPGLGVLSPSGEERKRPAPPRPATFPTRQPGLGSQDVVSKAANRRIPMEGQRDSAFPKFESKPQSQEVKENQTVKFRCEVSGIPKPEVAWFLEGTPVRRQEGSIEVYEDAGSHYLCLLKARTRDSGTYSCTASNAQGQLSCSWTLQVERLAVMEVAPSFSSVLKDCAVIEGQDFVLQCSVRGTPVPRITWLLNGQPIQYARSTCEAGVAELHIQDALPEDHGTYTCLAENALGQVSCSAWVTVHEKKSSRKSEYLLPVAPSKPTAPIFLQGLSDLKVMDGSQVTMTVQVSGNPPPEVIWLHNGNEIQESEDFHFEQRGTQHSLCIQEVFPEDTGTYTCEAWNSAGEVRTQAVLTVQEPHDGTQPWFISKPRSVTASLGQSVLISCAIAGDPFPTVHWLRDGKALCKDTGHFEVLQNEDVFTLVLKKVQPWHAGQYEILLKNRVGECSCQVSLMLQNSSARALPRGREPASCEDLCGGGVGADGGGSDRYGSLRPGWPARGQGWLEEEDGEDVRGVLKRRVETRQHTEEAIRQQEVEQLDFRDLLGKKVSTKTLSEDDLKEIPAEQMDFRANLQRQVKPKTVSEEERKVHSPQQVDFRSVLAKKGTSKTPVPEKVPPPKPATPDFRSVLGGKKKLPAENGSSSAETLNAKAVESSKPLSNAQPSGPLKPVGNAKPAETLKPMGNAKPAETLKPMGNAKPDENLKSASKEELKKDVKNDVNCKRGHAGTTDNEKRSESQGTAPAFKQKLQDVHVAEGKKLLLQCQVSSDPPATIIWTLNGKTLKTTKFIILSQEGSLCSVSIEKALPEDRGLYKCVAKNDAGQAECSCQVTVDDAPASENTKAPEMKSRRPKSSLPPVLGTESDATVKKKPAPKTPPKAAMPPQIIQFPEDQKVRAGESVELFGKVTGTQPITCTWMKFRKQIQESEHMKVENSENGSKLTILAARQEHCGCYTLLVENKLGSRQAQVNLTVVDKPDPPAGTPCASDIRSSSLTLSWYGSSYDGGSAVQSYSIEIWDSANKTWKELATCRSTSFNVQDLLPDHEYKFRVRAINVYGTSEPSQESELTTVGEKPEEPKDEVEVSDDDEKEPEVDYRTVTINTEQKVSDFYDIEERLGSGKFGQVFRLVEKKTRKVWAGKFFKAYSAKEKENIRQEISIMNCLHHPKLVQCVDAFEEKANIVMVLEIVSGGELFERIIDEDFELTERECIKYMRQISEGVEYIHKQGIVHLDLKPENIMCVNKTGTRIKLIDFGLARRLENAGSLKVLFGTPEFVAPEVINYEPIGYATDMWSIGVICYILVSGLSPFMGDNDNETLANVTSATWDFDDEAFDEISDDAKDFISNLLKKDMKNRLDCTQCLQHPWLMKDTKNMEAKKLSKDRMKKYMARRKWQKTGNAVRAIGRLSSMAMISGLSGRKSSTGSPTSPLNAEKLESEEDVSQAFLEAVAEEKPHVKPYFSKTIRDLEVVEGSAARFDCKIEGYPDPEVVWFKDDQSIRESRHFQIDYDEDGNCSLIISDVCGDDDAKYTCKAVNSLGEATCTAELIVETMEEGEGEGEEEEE

Set 1 — read-out: enzyme activity; action: inhibitor; tested at: 10 µM; endpoint: inhibition
Target: Calcium/calmodulin-dependent protein kinase type II subunit alpha (CAMK2A, Homo sapiens, UniProt Q9UQM7)
Chain of UniProt Q9UQM7 (whole entry, looked up): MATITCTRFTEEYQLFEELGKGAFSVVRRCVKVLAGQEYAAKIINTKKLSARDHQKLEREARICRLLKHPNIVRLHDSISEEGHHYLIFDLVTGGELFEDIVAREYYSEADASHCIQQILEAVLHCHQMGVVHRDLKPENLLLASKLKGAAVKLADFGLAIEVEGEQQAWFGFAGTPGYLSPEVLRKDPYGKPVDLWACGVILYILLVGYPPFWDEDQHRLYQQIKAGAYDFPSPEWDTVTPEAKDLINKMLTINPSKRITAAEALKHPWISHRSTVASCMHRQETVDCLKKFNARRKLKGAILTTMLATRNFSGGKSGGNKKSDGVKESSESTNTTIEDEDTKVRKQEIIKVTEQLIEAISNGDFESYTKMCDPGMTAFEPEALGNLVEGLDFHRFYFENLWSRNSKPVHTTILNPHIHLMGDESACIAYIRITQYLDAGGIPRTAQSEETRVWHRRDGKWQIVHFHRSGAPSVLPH
COc1ccc(C=O)cc1O: 21%
O=C([O-])c1ccc[n+]([C@@H]2O[C@H](CO)[C@@H](O)[C@H]2O)c1: -5%
CCC1=C[C@@H]2CN3CCc4c([nH]c5ccccc45)[C@@](C(=O)OC)(C2)[C@@H]13: 32%
COc1cc([C@@H]2OC[C@@H]3[C@H]2CO[C@H]3c2cc(OC)c(O[C@@H]3O[C@H](CO)[C@@H](O)[C@H](O)[C@H]3O)c(OC)c2)cc(OC)c1O[C@@H]1O[C@H](CO)[C@@H](O)[C@H](O)[C@H]1O: 18%
C=CCSSCC=C: 23%
CC(C)(O)C(=O)Nc1ccc([N+](=O)[O-])c(C(F)(F)F)c1: 2%
COc1ccc(C(=O)O)cc1OC: -9%
CC(C)NCC(O)c1ccccc1Cl (stereo not shown): 3%

Set 2 — read-out: enzyme activity; action: inhibitor; tested at: 0.5 µM; baseline: control; endpoint: remaining activity
SMILES: N/C(=N\[N+](=O)[O-])N/N=C\c1ccc(-c2cccc([N+](=O)[O-])c2)o1
G protein-coupled receptor kinase 6 (GRK6, Homo sapiens, UniProt P43250): 98.3%
Serine/threonine-protein kinase pim-2 (PIM2, Homo sapiens, UniProt Q9P1W9): 106%
Tyrosine-protein kinase CSK (CSK, Homo sapiens, UniProt P41240): 98.5%
Beta-adrenergic receptor kinase 1 (GRK2, Homo sapiens, UniProt P25098): 98.9%
Macrophage colony-stimulating factor 1 receptor (CSF1R, Homo sapiens, UniProt P07333): 94.5%
Receptor-type tyrosine-protein kinase FLT3 (FLT3, Homo sapiens, UniProt P36888): 99.3%
Aurora kinase C (AURKC, Homo sapiens, UniProt Q9UQB9): 90.5%
Ephrin type-B receptor 2 (EPHB2, Homo sapiens, UniProt P29323): 84.6%
Serine/threonine-protein kinase Sgk1 (SGK1, Homo sapiens, UniProt O00141): 92.4%
SRSF protein kinase 3 (SRPK3, Homo sapiens, UniProt Q9UPE1): 100%
NUAK family SNF1-like kinase 1 (NUAK1, Homo sapiens, UniProt O60285): 96.4%
Ribosomal protein S6 kinase alpha-1 (RPS6KA1, Homo sapiens, UniProt Q15418): 86.3%
Protein kinase C gamma type (PRKCG, Homo sapiens, UniProt P05129): 96.4%
Serine/threonine-protein kinase PAK 2 (PAK2, Homo sapiens, UniProt Q13177): 103%
Ribosomal protein S6 kinase beta-1 (RPS6KB1, Homo sapiens, UniProt P23443): 100%
Protein kinase C epsilon type (PRKCE, Homo sapiens, UniProt Q02156): 90.5%
Cytoplasmic tyrosine-protein kinase BMX (BMX, Homo sapiens, UniProt P51813): 90.1%
Myosin light chain kinase, smooth muscle (MYLK, Homo sapiens, UniProt Q15746): 92.5%
Ephrin type-A receptor 7 (EPHA7, Homo sapiens, UniProt Q15375): 97.9%
Fibroblast growth factor receptor 4 (FGFR4, Homo sapiens, UniProt P22455): 106%
Glycogen synthase kinase-3 alpha (GSK3A, Homo sapiens, UniProt P49840): 108%

Set 3 — read-out: RNA clamping; technique: fluorescence polarization; tested at: concentration not given; notes: mean of two replicates; added: FAM-labelled poly r(AG)8 RNA; endpoint: fluorescence polarization change
Target: Eukaryotic initiation factor 4A-III (Homo sapiens, UniProt P38919)
Chain of UniProt P38919 (whole entry, looked up): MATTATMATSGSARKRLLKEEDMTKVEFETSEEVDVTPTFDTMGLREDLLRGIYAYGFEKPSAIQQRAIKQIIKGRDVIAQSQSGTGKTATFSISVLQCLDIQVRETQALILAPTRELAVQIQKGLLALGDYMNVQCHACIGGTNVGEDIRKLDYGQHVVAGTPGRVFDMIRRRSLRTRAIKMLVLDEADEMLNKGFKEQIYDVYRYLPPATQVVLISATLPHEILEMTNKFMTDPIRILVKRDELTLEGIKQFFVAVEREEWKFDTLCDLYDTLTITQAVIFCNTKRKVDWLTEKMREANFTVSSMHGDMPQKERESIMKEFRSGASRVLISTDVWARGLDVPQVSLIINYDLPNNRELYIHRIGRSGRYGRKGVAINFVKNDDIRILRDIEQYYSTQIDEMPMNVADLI
COc1ccc([C@@]23Oc4cc(OC)cc(OC)c4[C@]2(O)c2nc(-c4ccc(Br)cc4)[nH]c(=O)c2[C@H]3c2ccccc2)cc1: 2.2 mP
CCOC(=O)COc1nc(-c2ccccc2)nc2c1[C@@H](c1ccccc1)[C@]1(c3ccc(OC)cc3)Oc3cc(OC)cc(OC)c3[C@]21O: 4.7 mP
COC(=O)[C@@H]1[C@@H](c2ccccc2)[C@]2(c3ccc(OC)cc3)Oc3cc(OC)cc(OC)c3[C@@]23OC(C)=N[C@@]13O: 29 mP
COCc1nc2c(c(=O)[nH]1)[C@@H](c1ccccc1)[C@]1(c3ccc(OC)cc3)Oc3cc(OC)cc(OC)c3[C@]21O: 32.6 mP
COC(=O)[C@H]1[C@@H](O)[C@@]2(O)c3c(OC)cc(OC)cc3O[C@@]2(c2ccc(Br)cc2)[C@@H]1c1ccccc1: 34.3 mP
COc1ccc([C@@]23Oc4cc(OC)cc(OC)c4[C@@]24NC(C)=N[C@@]4(O)[C@H](C(=O)N(C)OC)[C@H]3c2ccccc2)cc1: 88.4 mP
COc1ccc([C@]23Oc4cc(OC)cc(OC)c4[C@@]2(O)[C@@H](O)C[C@@H]3c2ccccc2)cc1: 3 mP
COc1ccc([C@@]23Oc4cc(OC)cc(OC)c4[C@]2(O)[C@H](O)[C@H](C(=O)O)[C@H]3c2ccccc2)cc1: 44.5 mP and 18.5 mP
COc1ccc([C@@]23Oc4cc(OC)cc(OC)c4[C@]2(O)c2nc(-c4ccncc4)[nH]c(=O)c2[C@H]3c2ccccc2)cc1: 18 mP
COc1ccc([C@@]23Oc4cc(OC)cc(OC)c4[C@]2(O)c2nc(C(C)C)[nH]c(=O)c2[C@H]3c2ccccc2)cc1: 17.6 mP
COc1ccc([C@@]23Oc4cc(OC)cc(OC)c4[C@]2(O)c2nc(-c4ccc(Cl)nc4)[nH]c(=O)c2[C@H]3c2ccccc2)cc1: 21.9 mP
COc1ccc([C@@]23Oc4cc(OC)cc(OC)c4[C@]2(O)c2nc(-c4cccnc4)[nH]c(=O)c2[C@H]3c2ccccc2)cc1: 31.2 mP
COC(=O)[C@@H]1[C@@H](c2ccccc2)[C@]2(c3ccc(OC)cc3)Oc3cc(OC)cc(OC)c3[C@@]23N=C(C)N[C@@]13O: 53.2 mP and 61.4 mP

Single results of other studies
C[C@@H]1CN(c2cc(-c3nn(C)c4ccc(OC5(C)CC5)cc34)ncn2)C[C@H](C)O1 — remaining binding (Serine/threonine-protein kinase PknB (pknB, Mycobacterium tuberculosis, UniProt P9WI81); cell-free assay, competition with immobilised ligand; 1 µM): 100%
C=CC(=O)Nc1ccc2[nH]c(=O)n(C3CCN(Cc4ccc(-c5ccc6c(c5)NC(=O)CO6)cc4)CC3)c2c1 — IC50 (RAC-gamma serine/threonine-protein kinase (AKT3, Homo sapiens, UniProt Q9Y243); target engagement in cells, BRET): 12 µM
CNC(=O)c1cc(C(=O)NC2CC2)cn(Cc2ccccc2)c1=O — inhibition (5-hydroxytryptamine receptor 1B (HTR1B, Homo sapiens, UniProt P28222); binding, radioligand binding; 10 µM): -3.67%
CN(C)C(=O)Cn1cc(-c2nc([C@@](C)(c3ccc(-c4cnc(N)nc4)cc3)C3CC3)no2)cn1 — remaining binding (Calcium-dependent protein kinase 1 (CDPK1, Plasmodium falciparum, UniProt P62344); cell-free assay, competition with immobilised ligand; 1 µM): 58%

Some of these lines once more (set 1):
C=CCSSCC=C: 23%
CC(C)NCC(O)c1ccccc1Cl (stereo not shown): 3%
COc1ccc(C(=O)O)cc1OC: -9%
COc1ccc(C=O)cc1O: 21%
O=C([O-])c1ccc[n+]([C@@H]2O[C@H](CO)[C@@H](O)[C@H]2O)c1: -5%
CC(C)(O)C(=O)Nc1ccc([N+](=O)[O-])c(C(F)(F)F)c1: 2%
CCC1=C[C@@H]2CN3CCc4c([nH]c5ccccc45)[C@@](C(=O)OC)(C2)[C@@H]13: 32%
